Measurements from different studies.
Each numbered part is a random draw from the data of one study; scales do not carry over between parts. Positions count from the first letter of the parent shown.

Set 1
Target: UBE2V2 UBC core domain (UniProt Q15819)
Technique: yeast two-hybrid
Matrix: yeast
Notes: mostly zero background
Reference: not given
Reading: higher = stronger interaction
B1: TRIM40 RING domain (UniProt Q6P9F5); chain LQKDNQEEGVCPICQESLKEAVSTNCGHLFCRVCLTQHVEKASASGVFCCPLCRKPCSEEVLG
B2: DTX4 RING domain (UniProt Q9Y2E6); chain QKVRHPPDEDCTICMERLTAPSGYKGPQPTVKPDLVGKLSRCGHVYHIYCLVAMYNNGNKDGSLQCPTCKTIYGVKTGTQ
B3: TRIM5 RING domain (UniProt Q9C035); chain ILVNVKEEVTCPICLELLTQPLSLDCGHSFCQACLTANHKKSMLDKGESSCPVCRISYQPENIRP
B4: SH3RF2 RING domain (UniProt Q8TEC5); chain DDLTLLDLLECPVCFEKLDVTAKVLPCQHTFCKPCLQRVFKAHKELRCPECRTPVFSNIEAL
B5: RNF208 RING domain (UniProt Q9H0X6); chain SSAAAGEPLECPTCGHSYNVTQRRPRVLSCLHSVCEQCLQILYESCPKYKFISCPTCRRETVLFTDYG
B6: NEURL1 RING domain (UniProt O76050); chain VTPGLGQWSDECTICYEHAVDTVIYTCGHMCLCYACGLRLKKALHACCPICRRPIKDIIKT
B7: TRAF5 RING domain (UniProt O00463); chain FVERLEERYKCAFCHSVLHNPHQTGCGHRFCQHCILSLRELNTVPICPVDKEVIKSQEVFK
B8: TRIML1 RING domain (UniProt Q8N9V2); chain LMENLREELTCFICLDYFSSPVTTECGHSFCLVCLLRSWEEHNTPLSCPECWRTLEGPHFQS
Construct (chain): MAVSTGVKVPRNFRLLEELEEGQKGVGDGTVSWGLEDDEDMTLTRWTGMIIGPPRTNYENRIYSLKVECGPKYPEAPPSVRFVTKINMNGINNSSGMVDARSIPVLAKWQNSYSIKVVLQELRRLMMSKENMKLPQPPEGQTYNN
| Molecule | lacZ reporter activity |
| --- | --- |
| QVDKAVFHMQSVKCLKCQEQKRAVLPCQHAALCELCAEGSECPICQPGRAHTLQS (UNK RING domain (UniProt Q9C0B0)) | 0 |
| VEPSEENSKDCVVCQNGTVNWVLLPCRHTCLCDGCVKYFQQCPMCRQFVQESFALC (CGRRF1 RING domain (UniProt Q99675)) | 0 |
| B1 (TRIM40 RING domain) | 0 |
| B2 (DTX4 RING domain) | 0 |
| GAAPGPEAAECLVCSELALLVLFSPCQHRTVCEECARRMKKCIRCQVVVSKKLRPD (MIB2 RING domain (UniProt Q96AX9)) | 0 |
| DHGAVGQEMCCPICCSEYVKGEVATELPCHHYFHKPCVSIWLQKSGTCPVCRCMFPPPL (PJA1 RING domain (UniProt Q8NG27)) | 0 |
| B3 (TRIM5 RING domain) | 0 |
| B4 (SH3RF2 RING domain) | 0 |
| MPIRALCTICSDFFDHSRDVAAIHCGHTFHLQCLIQWFETAPSRTCPQCRIQVGKRTIIN (TRAIP RING domain (UniProt Q9BWF2)) | 0 |
| B5 (RNF208 RING domain) | 0 |
| B6 (NEURL1 RING domain) | 0 |
| B7 (TRAF5 RING domain) | 0 |
| B8 (TRIML1 RING domain) | 0 |
| FQGDVDEDLICPICSGVLEEPVQAPHCEHAFCNACITQWFSQQQTCPVDRSVVTVAHLRP (RNF41 RING domain (UniProt Q9H4P4)) | 0 |

Set 2
Target: Interferon regulatory factor 5, full length, phosphomimetic (IRF5, Homo sapiens, UniProt Q13568-2, residues 1-514, K96S/S451D/S453D/S456D/S462D)
Technique: protein-binding microarray
Form: double-stranded DNA, one strand shown
Matrix: in vitro
Tested at: 250 nM
Notes: 60-bp whole probe
With: salmon DNA 0.4 mg/ml
Reference: random background probes
Reading: higher = stronger binding
All sequences stand within: GCCTAGCAC … GTCTTGATTCGCTTGACGCTGCTG
| Sequence | log fluorescence [z-score] |
| --- | --- |
| TTAGATATGGGGACTGGATTAGTGCTA | -0.144 |
| TCATATTTACCTCTCACACTGTGCTAG | 0.433 |
| GACGGACTGGGTATGGGGACGTGCTAG | -0.396 |
| TTGGGTATCGGTTTCGGTTAGTGCTAG | 11 |
| TAAGGACTGGGGTATCGGTTAGTGCTA | 2.21 |
| TTAGGACTGCTCTTCCTTTAGTGCTAG | -0.219 |
| GACGATTTGGGGTATCGAGACGTGCTA | 0.344 |
| TCATTTTTTTAATTGAAACTGTGCTAG | 1.31 |
| GAAGGTATCGGGACTGGGGACGTGCTA | 0.942 |
| TTAGGAATCCTACTGCTTTAGTGCTAG | -0.0218 |
| AGAGCAGACCCAGAGTGGCAGTGCTAG | -0.7 |
| TTTGCTTTCCTTCATGCACTGTGCTAG | 1.68 |
| TTAGTTCTCGGACTGGGTTAGTGCTAG | 0.0157 |
| TCAACCATCTCATATAAAACTGTGCTA | 0.782 |
| GACGGTCTCCTTCTCCTGACGTGCTAG | -0.3 |
| GACGGTCTACTTCTCCTGACGTGCTAG | -0.151 |
| TCACCAATCATTTTTGCACTGTGCTAG | 0.718 |
| TTGTGTGTGTGTTTGTGTGTGTGCTAG | 0.129 |
| TTAGATTTCGGACTGGATTAGTGCTAG | 2.4 |
| TTAGGTTTCCGGACTGGGTTAGTGCTA | 0.288 |
| AAGAGTTTCCCTCCCTGAGTGTGCTAG | 0.658 |
| GACGGTCTCGGTCTCGGGTCGTGCTAG | 0.512 |
| TTAGGTTTCGGTTTCGGTTCGTGCTAG | 11.8 |
| GACGAACTGGGGACTGGACACGTGCTA | -0.232 |
| GACGAAGTGGGGTATCGAGACGTGCTA | 0.175 |

Set 3
Target: CCNB2, cyclin fold, Cln2 fusion (human)
Technique: yeast growth competition, sequencing
Matrix: yeast
Notes: weak parent motif
Reference: not given
Reading: higher = stronger binding
Parent: CDKN1A docking peptide (human); SKACRRLFGPVDS
| Substitution | normalised enrichment score |
| --- | --- |
| A3S | -0.0674 |
| R6T | 0.888 |
| R5L | -0.188 |
| K2P | 0.224 |
| A3H | 0.427 |
| P10G | 0.35 |
| P10E | 0.212 |
| K2S | 0.124 |
| V11I | -0.0248 |
| P10R | 1.15 |
| G9H | 0.523 |
| D12C | 0.586 |
| V11D | 0.816 |
| K2F | -0.199 |
| R5W | 0.125 |
| P10T | 0.128 |
| R5P | -0.428 |
| L7I | 0.697 |
| R5N | 0.173 |
| C4E | -0.0116 |
| A3D | 0.0852 |
| A3V | 0.398 |

Set 4
Target: Ras GTPase-activating protein-binding protein 1, C-terminal RGG region (G3BP1, Homo sapiens, UniProt Q13283)
Sequence of UniProt Q13283 (whole entry, looked up): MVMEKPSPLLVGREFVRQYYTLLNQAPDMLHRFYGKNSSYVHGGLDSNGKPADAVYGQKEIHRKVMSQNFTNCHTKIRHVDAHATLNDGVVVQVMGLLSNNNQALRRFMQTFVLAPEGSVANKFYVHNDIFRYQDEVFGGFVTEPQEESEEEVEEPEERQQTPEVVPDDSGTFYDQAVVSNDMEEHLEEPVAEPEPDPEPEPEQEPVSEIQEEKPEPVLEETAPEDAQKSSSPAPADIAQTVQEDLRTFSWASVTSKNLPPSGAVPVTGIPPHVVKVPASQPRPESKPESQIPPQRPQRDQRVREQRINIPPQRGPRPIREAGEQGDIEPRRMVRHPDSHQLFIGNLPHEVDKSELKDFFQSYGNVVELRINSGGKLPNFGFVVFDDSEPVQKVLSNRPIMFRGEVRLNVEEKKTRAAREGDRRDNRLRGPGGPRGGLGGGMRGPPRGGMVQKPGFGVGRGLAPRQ
Technique: RNA Bind-n-Seq
Form: RNA
Matrix: in vitro
Tested at: 1 µM
Notes: whole 134-nt RNA, ends assumed
With: 150 mM KCl
Reference: input library
Reading: higher = stronger binding
All sequences stand within: GGGAGUUCUACAGUCCGACGAUC … UGGAAUUCUCGGGUGUCAAGG
| Sequence | log2 enrichment |
| --- | --- |
| UAACUUUAGAGGAGGAUCUGAUGGAUAUGGCAGUGGACGUGGAUUUGGGGAUGGCUAUAAUGGGUAUGGAGGAGGACCAGGAGGUGGCAA | -0.879 |
| UCCUGUGCUACACAUCGUAUGUACCGAAUCGGCCCCCCGGGGCCCCCCGGGCCCCCCGGGAAAGUAUUAUGUUACGCCGUUCGGAUCUGC | -1.64 |
| UGGCCCUGGUGGCAUGCGGGGAGGAAGAGGUGGCCUCAUGGAUCGUGGUGGUCCCGGUGGACUGUUCAGAGGUGGCCGUGGUGGAGACAG | 1.87 |
| ACCAUGCAGGUGGGCAUCUUUGGGAAGUGGGGCAAGGGGGGGAUAGGGAGGGGGGUAACACUUUGGGAACAGGUGGUCAAAGGUCGUUUC | -0.844 |
| AGUCCUGUGCUACACAUCGUAUGUACCGAAUCGGGAAAGGGAAAAAAAGGGAAAGGGAAAGUAUUAUGUUACGCCGUUCGGAUCUGCACU | 0.0598 |
| AGUCCUGUGCUACACAUCGUAUGUACCGAAUCAAAUUUUUAAACCCCCAAAUUUAAAAAAGUAUUAUGUUACGCCGUUCGGAUCUGCACU | -1.16 |
| UGGAAGUGGCGCUGGCGCCUGAAGAGUUGGAGCUGGAUCCUAUGGCCAUGACCCAGAAGUAUGAGGAGCAUGUGCGGGAGCAGCAGGCUC | -0.254 |
| AAGUCCUGUGCUACACAUCGUAUGUACCGAAUCGGAAAAGGAAAAGGGGAAAAGGGAAAGUAUUAUGUUACGCCGUUCGGAUCUGCACUU | -1.51 |
| UGGGAGGUGGAUUUUGUUUAUUUUUUUAGCUCAUUUCCAGGGGUGGGAAUUUUUUUUUAAUAUGUGUCAUUAAUAAAGUUGUUUUUGAAA | 3.54 |
| AGUCCUGUGCUACACAUCGUAUGUACCGAAUCGGGCCCCCGGCCCCCGGGCCCCCGGGAAAGUAUUAUGUUACGCCGUUCGGAUCUGCAC | -2.24 |
| CCUGUGCUACACAUCGUAUGUACCGAAUCGGAAAAAAAGGGGAAAAAAAGGAAAAAAAGGAAAGUAUUAUGUUACGCCGUUCGGAUCUGC | -1.69 |
| CCUGUGCUACACAUCGUAUGUACCGAAUCAAACCCCCCCAAAUUUUUUUAAAUUUUUAAAAAAGUAUUAUGUUACGCCGUUCGGAUCUGC | -1.14 |
| CCUGUGCUACACAUCGUAUGUACCGAAUCGGGUUUUUUGGGGUUUUUUGGUUUUUUGGGGAAAGUAUUAUGUUACGCCGUUCGGAUCUGC | -1.58 |
| UCCUGUGCUACACAUCGUAUGUACCGAAUCAAACCCCCCCAAACCCAAACCCCCCCAAAAAAGUAUUAUGUUACGCCGUUCGGAUCUGCA | -0.662 |

For quick reference, copied from above (set 2):
| Sequence | log fluorescence [z-score] |
| --- | --- |
| TTAGGAATCCTACTGCTTTAGTGCTAG | -0.0218 |
| TAAGGACTGGGGTATCGGTTAGTGCTA | 2.21 |
| GACGGACTGGGTATGGGGACGTGCTAG | -0.396 |
| TTAGATATGGGGACTGGATTAGTGCTA | -0.144 |
| TTAGGACTGCTCTTCCTTTAGTGCTAG | -0.219 |
| TTGTGTGTGTGTTTGTGTGTGTGCTAG | 0.129 |
| TCAACCATCTCATATAAAACTGTGCTA | 0.782 |
| TTTGCTTTCCTTCATGCACTGTGCTAG | 1.68 |
| AAGAGTTTCCCTCCCTGAGTGTGCTAG | 0.658 |
| TCACCAATCATTTTTGCACTGTGCTAG | 0.718 |
| GACGATTTGGGGTATCGAGACGTGCTA | 0.344 |
